{"data": "Assay results collected from several papers", "note": "Every numbered part comes from another study and shows a few of its results, in no order. Positions count from the first letter of the parent shown."}
{"data": "Block 1", "target": "CCNB1, cyclin fold, Cln2 fusion (human)", "technique": "yeast growth competition, sequencing", "matrix": "yeast", "setting": "strong parent motif", "reference": "not given", "reading": "higher = stronger binding", "starting sequence": "MASTL docking peptide (human); PMIAKNLMCELDE; partner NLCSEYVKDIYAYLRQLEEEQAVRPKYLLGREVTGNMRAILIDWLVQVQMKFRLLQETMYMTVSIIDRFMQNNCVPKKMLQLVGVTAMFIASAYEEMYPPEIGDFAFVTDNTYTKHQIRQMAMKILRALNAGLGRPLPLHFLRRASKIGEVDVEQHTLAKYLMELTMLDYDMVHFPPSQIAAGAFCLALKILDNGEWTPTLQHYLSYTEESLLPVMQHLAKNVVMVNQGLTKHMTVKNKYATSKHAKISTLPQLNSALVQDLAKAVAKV"}
{"Substitution": "E10Y", "normalised enrichment score": 1.35}
{"Substitution": "L7P", "normalised enrichment score": 0.079}
{"Substitution": "I3C", "normalised enrichment score": 0.929}
{"Substitution": "L11M", "normalised enrichment score": 0.407}
{"Substitution": "L7F", "normalised enrichment score": -0.0945}
{"Substitution": "K5S", "normalised enrichment score": -0.292}
{"Substitution": "M8F", "normalised enrichment score": 1.46}
{"Substitution": "L11A", "normalised enrichment score": 0.08}
{"data": "Block 2", "target": "ABI1, truncated, D143A, DHFR fusion (Arabidopsis thaliana)", "technique": "DHFR PCA, deep sequencing", "matrix": "yeast", "setting": "methotrexate growth selection, single substitutions", "added": "(+)-ABA 1.4 µM", "reference": "wild-type fitted maximum", "reading": "higher = stronger binding", "starting sequence": "PYL1, truncated, DHFR fusion (Arabidopsis thaliana); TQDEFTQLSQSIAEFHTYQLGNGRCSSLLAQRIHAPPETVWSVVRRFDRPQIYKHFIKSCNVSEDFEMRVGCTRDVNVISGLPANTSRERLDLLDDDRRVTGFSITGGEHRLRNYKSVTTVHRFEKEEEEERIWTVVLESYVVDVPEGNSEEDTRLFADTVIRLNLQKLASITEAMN"}
{"Substitution": "C60Y", "relative binding score": "10.7%"}
{"Substitution": "S104Q", "relative binding score": "-12.7%"}
{"Substitution": "S9V", "relative binding score": "46.2%"}
{"Substitution": "L156F", "relative binding score": "8.32%"}
{"Substitution": "L138M", "relative binding score": "32.5%"}
{"data": "Block 3", "target": "POU, POU domain (Salpingoeca helianthica)", "technique": "Spec-seq", "molecule type": "double-stranded DNA, one strand shown", "matrix": "in vitro", "concentration": "not given", "setting": "whole probe, mean of replicates", "reference": "not given", "reading": "lower = stronger binding", "constant ends, left off below": "GAGTCGTCTCGTCAGCAC … CCGTAGAGCACTCAGGTC", "Residues (chain)": "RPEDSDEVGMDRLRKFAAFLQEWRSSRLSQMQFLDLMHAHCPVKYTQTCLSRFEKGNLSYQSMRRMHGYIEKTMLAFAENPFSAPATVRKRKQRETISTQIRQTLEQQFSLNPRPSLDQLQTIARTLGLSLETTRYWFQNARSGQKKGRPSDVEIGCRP"}
{"Strand": "ATGCCCGA", "relative binding energy [ln ratio]": 1.23}
{"Strand": "TCGGTAAT", "relative binding energy [ln ratio]": 0.523}
{"Strand": "ATGCTGAA", "relative binding energy [ln ratio]": 1.18}
{"Strand": "GGCTTAAT", "relative binding energy [ln ratio]": 0.488}
{"Strand": "ATTCAGAT", "relative binding energy [ln ratio]": 1.23}
{"Strand": "ATGCACGA", "relative binding energy [ln ratio]": 1.33}
{"Strand": "ATCTTAAT", "relative binding energy [ln ratio]": 0.506}
{"Strand": "ATGCAGTC", "relative binding energy [ln ratio]": 1.34}
{"Strand": "ATGTCAAT", "relative binding energy [ln ratio]": 1.24}
{"Strand": "ATGCTCAC", "relative binding energy [ln ratio]": 1.15}
{"data": "Further values, each from its own experiment"}
{"Substance": "PhoQ, residues 284 288 289 292 302 303 MLMVEA", "target": "PhoP, residues 12 14 15 18 19 FWNTL (Escherichia coli, UniProt P23836)", "test": "Sort-seq, measured: YFP reporter", "system": "E. coli", "conditions": "PhoQ-PhoP variant library, added: 10 µM Mg2+", "scale": "reference: high Mg2+ state, higher = stronger signaling", "endpoint": "fold induction", "result": 17.7}
